Assay results collected from several papers.
Each numbered part is a random draw from the data of one study; scales do not carry over between parts. Values joined by “and” are separate records of one study, mostly repeats; a detail may differ.
UniProt Q99808, sequence (whole entry, looked up): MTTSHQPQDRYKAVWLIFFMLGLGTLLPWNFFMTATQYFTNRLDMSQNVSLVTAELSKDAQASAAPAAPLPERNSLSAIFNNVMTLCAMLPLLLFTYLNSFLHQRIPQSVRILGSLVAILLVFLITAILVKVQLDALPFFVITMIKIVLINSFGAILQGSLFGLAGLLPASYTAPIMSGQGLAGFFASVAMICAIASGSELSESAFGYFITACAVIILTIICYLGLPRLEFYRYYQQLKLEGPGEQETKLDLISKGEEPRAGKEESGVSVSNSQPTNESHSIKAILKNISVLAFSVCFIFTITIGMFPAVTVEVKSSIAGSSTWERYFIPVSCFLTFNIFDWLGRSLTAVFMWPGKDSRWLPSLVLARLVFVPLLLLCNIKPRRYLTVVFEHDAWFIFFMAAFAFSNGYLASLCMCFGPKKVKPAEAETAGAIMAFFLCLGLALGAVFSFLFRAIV

Sample 1
SMILES: COCC1CC2C(CCC3C(O)CCC32)c2ccc(O)cc21 (stereo not drawn)
The “log2 fold change” was 0.566 (A549; DNA microarray, refers to: ACTA2; 100 µM; baseline: untreated cells).
For SK-OV-3; DNA microarray, refers to: GINS1; 25 µM; baseline: untreated cells: “log2 fold change” read -0.112.
It gave -0.0725 for “log2 fold change” (SK-OV-3; DNA microarray, refers to: MCM10; 25 µM; baseline: untreated cells).
It gave 7.68 for “log2 fold change” (PANC-1; DNA microarray, refers to: C6; 25 µM; baseline: untreated cells).
For PANC-1; DNA microarray, refers to: MCM10; 100 µM; baseline: untreated cells: “log2 fold change” read 0.18.
The “log2 fold change” was 2.41 (SK-OV-3; DNA microarray, refers to: CCL1; 100 µM; baseline: untreated).
For A549; microarray, refers to: MCM6; 100 µM; baseline: untreated: “log2 fold change” read -0.129.
PANC-1; microarray, refers to: GZMK; 100 µM; baseline: untreated — “log2 fold change”: 0.
For A549; microarray, refers to: RFC3; 25 µM; baseline: untreated: “log2 fold change” read 0.38.
It gave 6.69 for “log2 fold change” (PANC-1; microarray, refers to: CCL11; 25 µM; baseline: untreated).
For PANC-1; microarray, refers to: CDC25B; 25 µM; baseline: untreated: “log2 fold change” read -0.0899.
The “log2 fold change” was 7.78 (A549; DNA microarray, refers to: C6; 25 µM; baseline: untreated cells).
It gave 0.154 for “log2 fold change” (A549; DNA microarray, refers to: GINS1; 25 µM; baseline: untreated cells).
It gave 8.07 for “log2 fold change” (A549; microarray, refers to: CCL11; 100 µM; baseline: untreated).

Sample 2
SMILES: C[C@@H]1CN(c2ccc(-c3cc(C(=O)NCCOCCOCCOCCOCCOCCOCCNC(=O)/C=C/c4[nH]cc(C(=O)N[C@@H](CC(N)=O)c5ccc(F)c(Cl)c5)c4-c4ccc(Cl)cc4F)ccc3F)cc2NC(=O)c2ccc(F)cc2C(F)(F)F)C[C@H](C)N1C
Observed: thermal unfolding
Technique: differential scanning fluorimetry
Concentration: 5.5 µM
Direction: higher = more unfolded
WDR5: WD repeat-containing protein 5 (WDR5, Homo sapiens, UniProt P61964)
DCAF1: DDB1- and CUL4-associated factor 1 (DCAF1, Homo sapiens, UniProt Q9Y4B6)
UniProt Q9Y4B6, sequence (whole entry, looked up): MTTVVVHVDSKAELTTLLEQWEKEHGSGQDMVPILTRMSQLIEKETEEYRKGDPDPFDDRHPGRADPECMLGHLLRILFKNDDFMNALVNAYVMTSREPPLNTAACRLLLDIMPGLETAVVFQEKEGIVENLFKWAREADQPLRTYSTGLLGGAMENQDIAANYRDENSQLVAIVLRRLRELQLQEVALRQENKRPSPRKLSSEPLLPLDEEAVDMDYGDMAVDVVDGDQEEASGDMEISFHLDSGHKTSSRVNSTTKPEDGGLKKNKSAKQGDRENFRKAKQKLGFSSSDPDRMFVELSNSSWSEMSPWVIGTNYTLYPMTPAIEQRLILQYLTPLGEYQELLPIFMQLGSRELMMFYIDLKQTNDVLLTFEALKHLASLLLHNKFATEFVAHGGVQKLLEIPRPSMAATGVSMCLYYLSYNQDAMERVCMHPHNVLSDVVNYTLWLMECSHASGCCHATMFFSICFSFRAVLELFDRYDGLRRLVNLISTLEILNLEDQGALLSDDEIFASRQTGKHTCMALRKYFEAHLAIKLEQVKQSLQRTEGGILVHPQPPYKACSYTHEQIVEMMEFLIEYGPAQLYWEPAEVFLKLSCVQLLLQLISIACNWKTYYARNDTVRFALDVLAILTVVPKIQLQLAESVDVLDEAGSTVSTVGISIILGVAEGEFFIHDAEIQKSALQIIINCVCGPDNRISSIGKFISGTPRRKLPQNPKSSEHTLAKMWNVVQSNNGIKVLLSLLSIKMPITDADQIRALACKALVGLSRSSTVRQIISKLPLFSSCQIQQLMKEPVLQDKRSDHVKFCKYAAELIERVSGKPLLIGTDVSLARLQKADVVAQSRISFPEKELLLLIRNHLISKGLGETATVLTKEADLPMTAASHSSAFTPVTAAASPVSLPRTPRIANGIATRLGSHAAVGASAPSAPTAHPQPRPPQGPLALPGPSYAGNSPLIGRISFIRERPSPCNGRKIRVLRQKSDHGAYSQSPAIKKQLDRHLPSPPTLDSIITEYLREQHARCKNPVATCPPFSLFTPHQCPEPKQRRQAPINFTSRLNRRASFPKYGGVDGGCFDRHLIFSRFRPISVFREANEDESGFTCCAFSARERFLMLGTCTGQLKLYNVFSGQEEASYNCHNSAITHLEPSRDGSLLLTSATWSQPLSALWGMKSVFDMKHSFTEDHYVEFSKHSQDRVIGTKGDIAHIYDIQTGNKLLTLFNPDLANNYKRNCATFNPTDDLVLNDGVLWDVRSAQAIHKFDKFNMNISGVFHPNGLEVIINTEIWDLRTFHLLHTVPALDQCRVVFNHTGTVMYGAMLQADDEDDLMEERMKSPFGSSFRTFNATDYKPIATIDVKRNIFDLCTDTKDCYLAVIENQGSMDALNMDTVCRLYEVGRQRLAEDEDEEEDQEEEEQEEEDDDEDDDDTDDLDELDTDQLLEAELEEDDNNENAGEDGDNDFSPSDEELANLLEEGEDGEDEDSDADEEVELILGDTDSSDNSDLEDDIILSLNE
WDR5; 63.01 °C — “SYPRO Orange fluorescence”: 15400 a.u.
It gave 41400 a.u. for “SYPRO Orange fluorescence” (DCAF1; 77.81 °C).
It gave 50500 a.u. for “SYPRO Orange fluorescence” (WDR5; 93.01 °C).
For WDR5; 51.6 °C: “SYPRO Orange fluorescence” read 16700 a.u.
The “SYPRO Orange fluorescence” was 15600 a.u. (WDR5; 59.21 °C).
The “SYPRO Orange fluorescence” was 53100 a.u. (DCAF1; 62.21 °C).
For DCAF1; 43.6 °C: “SYPRO Orange fluorescence” read 13900 a.u.
WDR5; 90.61 °C — “SYPRO Orange fluorescence”: 54100 a.u.
For WDR5; 71.21 °C: “SYPRO Orange fluorescence” read 32100 a.u.
It gave 14300 a.u. for “SYPRO Orange fluorescence” (WDR5; 42.2 °C).
The “SYPRO Orange fluorescence” was 48600 a.u. (WDR5; 94.61 °C).

Other studies, line by line
`Cc1ncsc1-c1ccc(C(CO)NC(=O)C2CC(O)CN2C(=O)C(C(C)C)n2cc(-c3ccc(COc4c(-c5c(C)c(F)cc6[nH]ncc56)c(C5CC5)cc5c(N6CC7CC6CN7)nc(OC6CCOCC6)nc45)cc3)nn2)cc1` (stereo not drawn) gave a mRNA level of 0.00249 and 0.00377 and 0.00239 (qRT-PCR, refers to: FOSL1; mouse, PK-59 xenograft, tumour; intravenous, 30 mg/kg, 6 h, unit not given; baseline: vehicle, same time point).
`COc1cc(C(=O)OCCCN2CCCN(CCCOC(=O)c3cc(OC)c(OC)c(OCc4ccc([N+](=O)[O-])cc4)c3)CC2)cc(OC)c1OC` has an adenosine uptake of 1.13 and 0.773 and 1 and 1.16 and 0.932 and 0.713 and 0.892 (Equilibrative nucleoside transporter 1 (SLC29A1, Homo sapiens, UniProt Q99808); inhibitor; 10 pM, unit not given, added: [3H]adenosine; baseline: normalised control).
`CCN1CCN(Cc2ccc(COc3c(-c4c(C)c(F)cc5[nH]ncc45)c(C4CC4)cc4c(N5C[C@@H]6C[C@H]5CN6)nc(OC5CCOCC5)nc34)cc2)C(=O)C1` has an IC50 of 726 nM (AsPC-1 KRAS G12D; ERK1/2 phosphorylation, inhibitor, In-Cell ELISA; 24 h, single experiment).
With `CCOc1ccc2nc(Sc3nc(Nc4ccc(I)cc4)nc(N4CCOCC4)n3)sc2c1` the mRNA level was 1.06 and 2.21 and 1.63 and 1.72 and 1.8 and 1.18 and 1.39 (Gaucher fibroblasts; qPCR, refers to: GBA1; 1 µM, 24 h, unit not given; baseline: DMSO).
With `Cc1ncsc1-c1ccc(C2(NC(=O)C3CC(O)CN3C(=O)C(NC(=O)c3ccc(COc4c(-c5c(C)c(F)cc6[nH]ncc56)c(C5CC5)cc5c(N6CC7CC6CN7)nc(OC6CCOCC6)nc45)cc3)C(C)(C)C)CC2)cc1` (stereo not drawn) the koff was 0.00692 s⁻¹ (GTPase KRas, GDP-bound (KRAS, Homo sapiens, UniProt P01116, G12D); SPR, multi-cycle; immobilized KRAS G12D; binary, geometric mean).

Excerpt of the above (sample 1):
PANC-1; microarray, refers to: GZMK; 100 µM; baseline: untreated — “log2 fold change”: 0.
It gave -0.0725 for “log2 fold change” (SK-OV-3; DNA microarray, refers to: MCM10; 25 µM; baseline: untreated cells).
It gave 8.07 for “log2 fold change” (A549; microarray, refers to: CCL11; 100 µM; baseline: untreated).
It gave 0.154 for “log2 fold change” (A549; DNA microarray, refers to: GINS1; 25 µM; baseline: untreated cells).
